Measured values from different studies.
Each line is one published result; not all experiments were run side by side. “And” joins repeats or separate records; there may be more than shown. Numbers after ± are the reported error. Converted amounts (≈) assume the structure as drawn.

| Structure (SMILES) | test | system | setting | how to read | measurement | result |
| --- | --- | --- | --- | --- | --- | --- |
| CCOc1c([C@H](C)n2nc(C)c3c(N)ncnc32)cc(Cl)c(F)c1[C@@H]1CNC(=O)C1 | measured: QRS >100 to ≤110 ms | previously treated B-cell malignancy | oral, 45 mg once daily, baseline below thresholds |  | ECG observations | 0% |
| CC(C)(C(=O)N1CCOc2c(C#N)cncc2C1)C(F)F | measured: gastrointestinal disorders | human | oral, 40 mg, CSF pharmacokinetic cohort |  | subjects with adverse event | 33.3% |
| Cc1cccc(CNC(=O)c2cn(CCNC(=O)c3ccccc3S)c3cc4c(cc3c2=O)OC(F)(F)O4)n1 |  | Sprague-Dawley rat, male, whole blood | intramuscular, 3 mg/kg of parent drug |  | half-life | 6.27 h |
| Cc1nc(-c2ccc(OCC(C)C)c(C#N)c2)sc1C(=O)O |  | KM mouse, chronic hyperuricaemia model | dose not given, day 10 |  | body weight | 33.2 g and 35 g and 31.9 g and 29.5 g and 28.7 g and 28.2 g |
| COc1ccc2c(c1)CN(C(=O)CCN1CCC(Cc3ccccc3)CC1)CC[S@@+]2[O-] | telemetry | conscious dogs | intravenous, up to 8 mg/kg |  | blood pressure and ECG intervals | no effect |
| O=C1CC[C@H](N2Cc3cc(N4CCN(CC5CCN(c6ccc([C@@H]7c8ccc(O)cc8CC[C@@H]7c7ccccc7)cc6)CC5)CC4)ccc3C2=O)C(=O)N1 |  | human whole blood | 2.5 µM, 60 min |  | blood to plasma ratio | 0.67 |
| COCC(=O)N1CCC[C@H](C(=O)NCc2nc(-c3ccccc3)cs2)C1 |  | Sprague-Dawley rat, male, urine | intravenous, 1 mg/kg, 24 h | baseline: dose | urinary excretion | 0.68% |
| N#Cc1ccc2c(c1)[C@H]1CCCN(C(=O)c3ccc4[nH]cnc4c3)[C@H]1C2 |  | human females | 80 mg, end of trial |  | SHBG | 52 nmol/L |
| O=C(N/N=C/c1ccccc1O)c1ccncc1 |  | ADS buffer | 115 µM, 12 h, 5 °C, post-preparative, autosampler |  | stability | 99.9% |
| C[C@@H]1CCO[C@H]2Cn3cc(C(=O)NCc4ccc(F)cc4F)c(=O)c(O)c3C(=O)N12 | population PK, post-hoc | children, 20 to <25 kg, plasma | oral, 30 mg dispersible tablet, steady state, geometric mean |  | AUC(0-24) | 68800 ng·h/mL |
| CCc1c(-c2ccccc2)c(-c2ccccc2)nn1-c1ccccc1-c1cccc(OCC(=O)O)c1 |  | female Sprague-Dawley rat, uterus | oral, 10 mg/kg, 8 h |  | concentration | 290 ng/g |
| CO[C@H]1C[C@@H]2CC[C@@H](C)[C@@](O)(O2)C(=O)C(=O)N2CCCC[C@H]2C(=O)O[C@H]([C@H](C)C[C@@H]2CC[C@@H](OC(=O)NCCOCCOCCOCCOCCOCCOCCOCCOCCC(=O)N3CCc4cc(Cn5nc(-c6ccc7oc(N)nc7c6)c6c(N)ncnc65)ccc4C3)[C@H](OC)C2)C[C@@H](O)[C@H](C)/C=C(\C)[C@@H](O)[C@@H](OC)C(=O)[C@H](C)C[C@H](C)/C=C/C=C/C=C/1C |  | human patients, plasma | intravenous, 10 mg, cycle 1 day 1, weekly dosing, 1 h infusion, arithmetic mean |  | Tmax | 1 h |
| CO[C@H]1C[C@@H]2CC[C@@H](C)[C@@](O)(O2)C(=O)C(=O)N2CCCC[C@H]2C(=O)O[C@H]([C@H](C)C[C@@H]2CC[C@@H](O)[C@H](OC)C2)CC(=O)[C@H](C)/C=C(\C)[C@@H](O)[C@@H](OC)C(=O)[C@H](C)C[C@H](C)/C=C/C=C/C=C/1C |  | healthy adult horses | intravenous, 0.06 mg/kg, 1 h |  | rectal temperature | 37 ± 0.4 °C |
| c1ccc(CN(CCN(Cc2ccccn2)Cc2ccccn2)Cc2ccccn2)nc1 |  | human red blood cells | 200 µM, 1 h, pH 7.2, 37 °C |  | hemolysis | ≤ 1% |
| C=CCN1CC(=O)N2[C@@H](Cc3ccc(O)cc3F)C(=O)N(Cc3cccc(N4CC(N5CCN(CC)CC5)C4)n3)C[C@@H]2N1C(=O)NCc1ccccc1 | measured: Malaise | advanced solid tumour patients | oral, 120 mg twice daily, expansion part, any grade |  | treatment-related adverse events | 20% |
| C[C@H](CCC(=O)O)[C@H]1CC[C@H]2[C@@H]3CC[C@@H]4C[C@H](OS(=O)(=O)O)CC[C@]4(C)[C@H]3CC[C@]12C |  | human, plasma | endogenous control diurnal | baseline: daily mean concentration | relative peak deviation | 12 ± 3.9% |
| O=C1COCCN1c1ccc(CO[C@@H]2COc3nc([N+](=O)[O-])cn3C2)cn1 |  | aqueous buffer | pH 7.4 |  | aqueous solubility | 28.4 µg/mL (≈ 75.7 µM) |
| COc1cc(Nc2ncc3c(n2)-c2ccc(Cl)cc2C(c2c(F)cccc2OC)=NC3)ccc1C(=O)O | measured: Dizziness, grade 2 | cancer patients, phase 1/2 | oral, dose not given, with: pembrolizumab |  | patients with adverse event | 4% |
| COc1cc(C(=O)N2CCC3(CC2)CC(=O)c2c(cnn2C(C)C)C3)cc(-c2ccc(C(=O)O)cc2)n1 |  | human, fasting serum | 40 mg once daily, day 13, adjusted geometric mean | baseline: placebo | total cholesterol change from baseline | 4.8% |
| C=CC(=O)N1CCC[C@@H](n2nc(-c3ccc(Oc4ccccc4)cc3)c3c(N)ncnc32)C1 |  | Wistar rat, plasma | oral, dose not given, suspension |  | mean residence time | 6.42 ± 1.96 h |

| Structure (SMILES) | test | system | setting | how to read | measurement | result |
| --- | --- | --- | --- | --- | --- | --- |
| Cc1ccc([C@@H]2O[C@H](CO)[C@@H](O)[C@H](O)[C@H]2O)cc1Cc1ccc(-c2ccc(F)cc2)s1 |  | Japanese type 2 diabetes patients | 25 mg, day 1, 24 h urine collection | baseline: baseline | urinary magnesium excretion change | -9.78 mg |
| CCOc1c([C@H](C)n2nc(C)c3c(N)ncnc32)cc(Cl)c(F)c1[C@@H]1CNC(=O)C1 |  | rat plasma | storage, freeze-thaw, autosampler |  | stability | stable |
| CC(C)=CC[C@@H](O)C1=CC(=O)c2c(O)ccc(O)c2C1=O |  | plasma | 0.5 ng/mL, 3 d, -80 °C, storage stability |  | measured concentration | 0.48 ± 0.02 ng/mL |
| O=C(O)c1cccc(C(=O)O)c1 |  | betaine/ethylene glycol DES-water | DES mass fraction 0.90 |  | apparent dissolution enthalpy | 10.5 kcal/mol |
| Oc1ccc(/C=C/c2cc(O)cc(O)c2)cc1 |  | rat, azoxymethane-injected, blood at sacrifice | 100 mg/kg |  | chloride | 104 mEq/L and 100 mEq/L and 101 mEq/L |
| C[C@@H](NC(=O)N1C(=O)[C@H](Cc2ccnc(N)c2)[C@H]1C(=O)O)C1CCCCC1 | UPLC-MS/MS | healthy adult Chinese volunteers, plasma | continuous intravenous infusion, 0.6 mg/kg/h, day 6 of 5-day infusion, mean |  | elimination rate constant | 0.000173 s⁻¹ |
| CNC(=O)c1ccc(-c2cnc3ncc(Cc4ccc5ncccc5c4)n3n2)cc1F |  | Japanese patients | oral, 400 mg, grade 3/4 |  | blood creatinine increased dose reduction/interruption | 0% |
| Cc1nc2cccc(OCC(C)(C)C(=O)NC(C)C)c2c(N)c1C(=O)O |  | male Swiss albino CD-1 mouse, bone marrow | oral, 1000 mg/kg, 24 h |  | micronucleated PCE per 14000 PCE | 7 |
| CCc1cc(C(=O)NC)c2nccc(N3CCc4c(cc(Cn5ccnc5)cc4-c4cn(C)nc4C(F)(F)F)C3=O)c2c1 |  | Sprague Dawley rat | oral, 100 mg/kg once daily, 7 days | baseline: vehicle | liver weight change | -1.1% |
| FC(F)(F)c1ccc(CNc2ccc(Cc3c[nH]c4ncc(Cl)cc34)cn2)cn1 | measured: Pyrexia | patients with advanced solid tumours | oral, dose not given, all grades, possibly related to drug |  | adverse event incidence | 11% |
| COc1ncc(-c2nc3c(n2C(C)C)[C@H](c2ccc(Cl)cc2)N(c2cc(Cl)cn(C)c2=O)C3=O)c(OC)n1 |  | human patients, plasma | oral, 25 mg, cycle 1 day 1, low-dose |  | median Tmax | 2 h |
| CC(C)[C@H](C(=O)Nc1ccc(C(=O)NO)cc1)c1ccccc1 |  | whole blood | 1000 ng/mL, 0 h, 4 °C, stability on ice |  | measured concentration | 1000 ng/mL |
| Cn1cnc2c(F)c(Nc3ccc(Br)cc3Cl)c(C(=O)NOCCO)cc21 | population PK model | human, plasma | oral, nonlinear absorption model | baseline: fed over fasted | relative bioavailability | 0.77 |
| C[C@@H](Oc1ccc(S(C)(=O)=O)cc1C(=O)N1C[C@@H]2C[C@]2(c2cc(C(F)(F)F)on2)C1)C(F)(F)F |  | human, faeces | oral, 25 mg, mean | baseline: dose | faecal excretion | 0.3% |
| C[C@H](CCC(=O)NCC(=O)O)[C@H]1CC[C@H]2[C@@H]3CC[C@@H]4C[C@H](O)CC[C@]4(C)[C@H]3C[C@H](O)[C@]12C |  | human, plasma | endogenous baseline diurnal | baseline: daily mean concentration | relative peak deviation | 189 ± 19% |
| [18F]c1ccc(-c2ccc3c(c2)[nH]c2ccncc23)cn1 | microPET/CT imaging | APP/PS1 mouse, AD model, heart | intravenous, 10 min |  | SUV | 1.12 ± 0.492 |
| CNCc1ccc(-c2[nH]c3cc(F)cc4c3c2CCNC4=O)cc1 |  | human patients | oral, 360 mg twice daily, all grades |  | dizziness incidence | 25% |
| CC(C)n1c(Nc2cccnc2)nc2cnc(Nc3ccc(N4CCN(C)CC4)cc3)nc21 | measured: metabolism and nutrition disorders (SOC) | healthy human, male | oral, dose not given, CTCAE grade 1-3 |  | subjects with TEAE | 16.7% |
| C=CC[C@@H]1/C=C(\C)C[C@H](C)C[C@H](OC)[C@H]2O[C@@](O)(C(=O)C(=O)N3CCCC[C@H]3C(=O)O[C@H](/C(C)=C/[C@@H]3CC[C@@H](O)[C@H](OC)C3)[C@H](C)[C@@H](O)CC1=O)[C@H](C)C[C@@H]2OC |  | kidney transplant recipients, CYP3A5*3/*3 carriers, poor metabolisers, whole blood | oral, dose not given, limited sampling |  | dose-normalized AUC(0-12h) | 151 ng·h/mL |

Repeated from above:
| Structure (SMILES) | test | system | setting | how to read | measurement | result |
| --- | --- | --- | --- | --- | --- | --- |
| O=C1CC[C@H](N2Cc3cc(N4CCN(CC5CCN(c6ccc([C@@H]7c8ccc(O)cc8CC[C@@H]7c7ccccc7)cc6)CC5)CC4)ccc3C2=O)C(=O)N1 |  | human whole blood | 2.5 µM, 60 min |  | blood to plasma ratio | 0.67 |
| COCC(=O)N1CCC[C@H](C(=O)NCc2nc(-c3ccccc3)cs2)C1 |  | Sprague-Dawley rat, male, urine | intravenous, 1 mg/kg, 24 h | baseline: dose | urinary excretion | 0.68% |
| N#Cc1ccc2c(c1)[C@H]1CCCN(C(=O)c3ccc4[nH]cnc4c3)[C@H]1C2 |  | human females | 80 mg, end of trial |  | SHBG | 52 nmol/L |
| O=C(N/N=C/c1ccccc1O)c1ccncc1 |  | ADS buffer | 115 µM, 12 h, 5 °C, post-preparative, autosampler |  | stability | 99.9% |
| C[C@@H]1CCO[C@H]2Cn3cc(C(=O)NCc4ccc(F)cc4F)c(=O)c(O)c3C(=O)N12 | population PK, post-hoc | children, 20 to <25 kg, plasma | oral, 30 mg dispersible tablet, steady state, geometric mean |  | AUC(0-24) | 68800 ng·h/mL |
